Published values pooled from the literature.
± marks the error that the study gave.

SMILES | cell line | effect on | technique | time | pH | setting | IC50 [µM]
C=C(C)C[C@H](OC)[C@H](O)C(=O)N[C@@H](OC)[C@@H]1C[C@H](O)C(C)(C)[C@@H](C[C@H](O)[C@@H](C)[C@H]2Cc3c(C)c(O)cc(O)c3C(=O)O2)O1 | H522-T1 | cell growth or viability | – | – | – | – | 0.0009
[Cl][Au].[Se]=c1n(C2CCCCC2)ccn1C1CCCCC1 | LoVo MDR | – | MTT | 72 h | – | – | 3.7 ± 0.3
C[C@H](NC(=O)[C@H](CCCNC(=N)N)NC(=O)[C@H](CCCNC(=N)N)NC(=O)[C@@H]1CCCN1C(=O)CNC(=O)[C@H](CCCNC(=N)N)NC(=O)[C@H](CCCNC(=N)N)NC(=O)CN)C(=O)N[C@@H](CC(N)=O)C(=O)N[C@@H](CCC(N)=O)C(=O)N[C@@H](CC(N)=O)C(=O)NCC(=O)N[C@H](C(=O)N[C@@H](CCCNC(=N)N)C(=O)N[C@@H](CCCNC(=N)N)C(=O)N[C@@H](CCCNC(=N)N)C(=O)N[C@@H](CCCNC(=N)N)C(=O)N[C@@H](CCCNC(=N)N)C(=O)N[C@@H](CCCNC(=N)N)C(=O)N[C@H](C(N)=O)[C@@H](C)O)[C@@H](C)O | BT-20 | cell viability | CellTiter-Blue | 24 h | – | serum-free medium | > 100
O=C(N=P12CN3CN(CN(C3)C1)C2)c1cccc[c]1[Pd]([Br])([PH]12CN3CN(CN(C3)C1)C2)[PH]12CN3CN(CN(C3)C1)C2 | human PBMC | cytotoxicity | MTT | 24 h | – | 1% DMSO | > 500
O=C(O)c1ccc([PH]([Au][Cl])(c2ccccc2)c2ccccc2)cc1 | A2780 | cell growth or viability | resazurin | 72 h | – | – | 11.5
N=C(N)NCCC[C@H](NC(=O)[C@H](CCCNC(=N)N)NC(=O)[C@@H]1CCCN1C(=O)[C@H](CCCNC(=N)N)NC(=O)[C@H](CCCNC(=N)N)NC(=O)[C@H](CCCNC(=N)N)NC(=O)[C@H](Cc1c[nH]c2ccccc12)NC(=O)[C@H](CCCNC(=N)N)NC(=O)[C@H](CCCNC(=N)N)NC(=O)[C@H](CCCNC(=N)N)NC(=O)[C@H](CCCNC(=N)N)NC(=O)[C@H](CCCNC(=N)N)NC(=O)[C@H](Cc1c[nH]c2ccccc12)NC(=O)[C@H](CCCNC(=N)N)NC(=O)[C@H](CCCNC(=N)N)NC(=O)[C@H](Cc1ccc(O)cc1)NC(=O)[C@H](CCCNC(=N)N)NC(=O)[C@H](CCCNC(=N)N)NC(=O)[C@H](CCCNC(=N)N)NC(=O)[C@@H](N)Cc1c[nH]c2ccccc12)C(N)=O | BT-20 | cell viability | CellTiter-Blue | 24 h | – | serum-free medium | 4.2 ± 2.2
Cc1cc(C)c(N2CCN(c3c(C)cc(C)cc3C)C2=[Se])c(C)c1.[Cl][Ag] | LoVo MDR | – | MTT | 72 h | – | – | 1.4 ± 0.6
CC1COC2(OC3CC4C5CC(OC6OC(C)C(O)C(OC7OC(C)C(O)C(O)C7O)C6O)C6CC(O)CCC6(C)C5CCC4(C)C3C2C)C(O)C1 (centres unmarked) | HEK293T | cell viability | MTT | 48 h | – | – | > 100
CC(C)C[C@H](NC(=O)[C@H](CC(C)C)NC(=O)[C@H](CCC(=O)O)NC(=O)[C@H](Cc1c[nH]cn1)NC(=O)[C@H](CC(C)C)NC(=O)[C@H](Cc1c[nH]cn1)NC(=O)[C@H](CCC(=O)O)NC(=O)[C@H](CC(C)C)NC(=O)[C@H](CC(C)C)NC(=O)[C@H](CCC(=O)O)NC(=O)[C@H](Cc1c[nH]cn1)NC(=O)[C@@H](N)CC(C)C)C(=O)N[C@@H](CCC(=O)O)C(=O)N[C@@H](Cc1c[nH]cn1)C(N)=O | HK-2 | cell growth or viability | MTT | – | pH 6 | – | > 100
Cc1cc(Nc2nc(C[C@@]3(C(=O)O)CCN(Cc4cccc(Cl)c4F)[C@H](C)C3)cc(C)c2F)[nH]n1 | neuroblastoma cell lines | cell proliferation | – | – | – | mean of four lines | 0.0173
CC(C)C[C@H](NC(=O)[C@H](C)NC(=O)[C@H](CCCCN)NC(=O)[C@H](C)NC(=O)[C@H](C)NC(=O)[C@@H]1CSCc2cccc(c2)CSC[C@H](NC(=O)[C@H](CCCCN)NC(=O)[C@H](Cc2ccccc2)NC(=O)CN)C(=O)N[C@@H](CC(C)C)C(=O)N[C@@H](CC(C)C)C(=O)N[C@@H](CCCCN)C(=O)N1)C(=O)N[C@H](C(=O)N[C@@H](CCCCN)C(=O)N[C@H](C(=O)N[C@H](C(=O)N[C@@H](CC(C)C)C(=O)N[C@@H](Cc1ccccc1)C(N)=O)C(C)C)[C@@H](C)O)C(C)C | U87 | cell proliferation | CCK-8 | 48 h | – | – | 16.7

Excerpt of the above:
SMILES | cell line | effect on | technique | time | pH | setting | IC50 [µM]
O=C(O)c1ccc([PH]([Au][Cl])(c2ccccc2)c2ccccc2)cc1 | A2780 | cell growth or viability | resazurin | 72 h | – | – | 11.5
C[C@H](NC(=O)[C@H](CCCNC(=N)N)NC(=O)[C@H](CCCNC(=N)N)NC(=O)[C@@H]1CCCN1C(=O)CNC(=O)[C@H](CCCNC(=N)N)NC(=O)[C@H](CCCNC(=N)N)NC(=O)CN)C(=O)N[C@@H](CC(N)=O)C(=O)N[C@@H](CCC(N)=O)C(=O)N[C@@H](CC(N)=O)C(=O)NCC(=O)N[C@H](C(=O)N[C@@H](CCCNC(=N)N)C(=O)N[C@@H](CCCNC(=N)N)C(=O)N[C@@H](CCCNC(=N)N)C(=O)N[C@@H](CCCNC(=N)N)C(=O)N[C@@H](CCCNC(=N)N)C(=O)N[C@@H](CCCNC(=N)N)C(=O)N[C@H](C(N)=O)[C@@H](C)O)[C@@H](C)O | BT-20 | cell viability | CellTiter-Blue | 24 h | – | serum-free medium | > 100
